Assay results from different studies.
Lines come from different studies, so protocols differ. Numbers after ± are the reported error.
Route: intravenous

Compound	test	system	conditions	how to read	endpoint	result
N=C(N)NCCC[C@@H]1NC(=O)[C@H](CCCCNC(=O)CCOCCOCCOCCOCCNC(=O)CN2CCN(CC(=O)O)CCN(CC(=O)O)CCN(CC(=O)O)CC2)NC(=O)[C@@H](Cc2ccccc2)NC(=O)[C@H](CC(=O)O)NC(=O)CNC1=O [indium-111 labelled]		athymic nude mice, female, U-87 MG glioma xenograft, tumour and heart	72 h	reference: tumour over heart	tumour to tissue ratio	7.62 ± 1.67
N=C(N)NCCC[C@@H]1NC(=O)[C@H](CCCCNC(=O)CNC(=O)CNC(=O)CNC(=O)CC[C@H](NC(=O)CNC(=O)CNC(=O)CNC(=O)c2ccc(NN=Cc3ccccc3S(=O)(=O)O)nc2)C(=O)NCC(=O)NCC(=O)NCC(=O)NCCCC[C@@H]2NC(=O)[C@@H](Cc3ccccc3)NC(=O)[C@H](CC(=O)O)NC(=O)CNC(=O)[C@H](CCCNC(=N)N)NC2=O)NC(=O)[C@@H](Cc2ccccc2)NC(=O)[C@H](CC(=O)O)NC(=O)CNC1=O [technetium-99m labelled]	gamma counting	female athymic nu/nu mice, MDA-MB-435 breast cancer xenograft, tumour	120 min post-injection		tumour uptake	7.6 ± 0.68 %ID/g
N=C(N)NCCC[C@@H]1NC(=O)[C@H](CCCCNC(=O)CCOCCOCCOCCOCCNC(=O)CC[C@H](NC(=O)CCOCCOCCOCCOCCNC(=O)c2ccc(NN)nc2)C(=O)NCCOCCOCCOCCOCCC(=O)NCCCC[C@@H]2NC(=O)[C@@H](Cc3ccccc3)NC(=O)[C@H](CC(=O)O)NC(=O)CNC(=O)[C@H](CCCNC(=N)N)NC2=O)NC(=O)[C@@H](Cc2ccccc2)NC(=O)[C@H](CC(=O)O)NC(=O)CNC1=O [technetium-99m labelled]	SPECT/CT	athymic nude mice, U-87 MG xenograft, tumour	37 MBq, 60 min		tumour uptake	~7 %ID/mL
CC[C@@]1(O)C(=O)OCc2c1cc1n(c2=O)Cc2cc3cc(OC(=O)CCCC(=O)NCC(=O)N[C@@H](Cc4ccccc4)C(=O)N[C@@H](Cc4ccccc4)C(=O)N[C@@H](Cc4ccc(OP(=O)(O)O)cc4)C(=O)NCCSSCCNC(=O)CCC(=O)N[C@@H](CCC(=O)O)C(=O)N[C@@H](CCCNC(=N)N)C(=O)NCC(=O)N[C@@H](CC(=O)O)C(=O)O)ccc3nc2-1	LC-MS	nude mice, HepG2 xenograft, tumour	3 mg/kg HCPT equivalent, 24 h	reference: free HCPT	tumour accumulation	13.6 fold
N=C(N)NCCC[C@@H]1NC(=O)[C@H](CCCCNC(=O)CNC(=O)CNC(=O)CNC(=O)c2ccc(NN=Cc3ccccc3S(=O)(=O)O)nc2)NC(=O)[C@@H](Cc2ccccc2)NC(=O)[C@H](CC(=O)O)NC(=O)CNC1=O [technetium-99m labelled]		female athymic nu/nu mice, U-87 MG glioma xenograft, tumour	120 min post-injection		tumour uptake	3.03 ± 0.54 %ID/g
N=C(N)NCCC[C@H](NC(=O)[C@H](CCCCN)NC(=O)[C@H](CCC(N)=O)NC(=O)CCOCCOCCOCCNC(=O)CN1CCN(CC(=O)O)CCN(CC(=O)O)CCN(CC(=O)O)CC1)C(=O)N[C@@H](CCCCN)C(=O)N[C@@H](CCCNC(=N)N)C(=O)N[C@@H](CCCCN)C(=O)N[C@@H](CCCCN)C(=O)N[C@@H](CO)C(=O)N[C@@H](CCCNC(=N)N)C(=O)N[C@@H](Cc1ccc(O)cc1)C(=O)N[C@@H](CCCCN)C(=O)N[C@@H](CO)C(=O)O [copper-64 labelled]		C57BL/6 mice, B16-F10 melanoma	20 min, decay corrected		tumour uptake	~5.89 %ID/g
N=C(N)NCCC[C@@H]1NC(=O)[C@H](CCCCNC(=O)CC[C@H](NC(=O)CCOCCOCCOCCOCCNC(=O)CN2CCN(CC(=O)O)CCN(CC(=O)O)CCN(CC(=O)O)CC2)C(=O)NCCCC[C@@H]2NC(=O)[C@@H](Cc3ccccc3)NC(=O)[C@H](CC(=O)O)NC(=O)CNC(=O)[C@H](CCCNC(=N)N)NC2=O)NC(=O)[C@@H](Cc2ccccc2)NC(=O)[C@H](CC(=O)O)NC(=O)CNC1=O [indium-111 labelled]		athymic nude mice, female, U-87 MG glioma xenograft, tumour and lungs	4 h	reference: tumour over lungs	tumour to tissue ratio	3.15 ± 0.4
N=C(N)NCCC[C@@H]1NC(=O)[C@H](CCCCNC(=O)CNC(=O)CNC(=O)CNC(=O)CC[C@H](NC(=O)c2ccc(NN=Cc3ccccc3S(=O)(=O)O)nc2)C(=O)NCC(=O)NCC(=O)NCC(=O)NCCCC[C@@H]2NC(=O)[C@@H](Cc3ccccc3)NC(=O)[C@H](CC(=O)O)NC(=O)CNC(=O)[C@H](CCCNC(=N)N)NC2=O)NC(=O)[C@@H](Cc2ccccc2)NC(=O)[C@H](CC(=O)O)NC(=O)CNC1=O [technetium-99m labelled]		female athymic nu/nu mice, U-87 MG glioma xenograft, tumour	120 min post-injection		tumour uptake	7.74 ± 1.25 %ID/g
N=C(N)NCCC[C@@H]1NC(=O)[C@H](CCCCNC(=O)CC[C@H](NC(=O)CCOCCOCCOCCOCCNC(=O)CC[C@H](NC(=O)CN2CCN(CC(=O)O)CCN(CC(=O)O)CCN(CC(=O)O)CC2)C(=O)NCCOCCOCCOCCOCCC(=O)N[C@@H](CCC(=O)NCCCC[C@@H]2NC(=O)[C@@H](Cc3ccccc3)NC(=O)[C@H](CC(=O)O)NC(=O)CNC(=O)[C@H](CCCNC(=N)N)NC2=O)C(=O)NCCCC[C@@H]2NC(=O)[C@@H](Cc3ccccc3)NC(=O)[C@H](CC(=O)O)NC(=O)CNC(=O)[C@H](CCCNC(=N)N)NC2=O)C(=O)NCCCC[C@@H]2NC(=O)[C@@H](Cc3ccccc3)NC(=O)[C@H](CC(=O)O)NC(=O)CNC(=O)[C@H](CCCNC(=N)N)NC2=O)NC(=O)[C@@H](Cc2ccccc2)NC(=O)[C@H](CC(=O)O)NC(=O)CNC1=O [indium-111 labelled]		athymic nude mice, female, U-87 MG glioma xenograft, tumour and kidney	72 h	reference: tumour over kidney	tumour to tissue ratio	1.28 ± 0.59
CC(C)C[C@H](NC(=O)C[C@H](O)[C@H](CC(C)C)NC(=O)[C@H](Cc1c[nH]cn1)NC(=O)CNC(=O)[C@@H](NC(=O)[C@H](C)NC(=O)[C@H](Cc1c[nH]c2ccccc12)NC(=O)[C@H](CCC(N)=O)NC(=O)[C@@H](Cc1ccccc1)NC(=O)c1ccc(NC(=O)CNC(=O)CCC(C(=O)O)N2CCN(CC(=O)O)CCN(CC(=O)O)CC2)cc1)C(C)C)C(N)=O (stereo partly shown) [fluorine-18 labelled]	PET imaging	mice with PC-3 xenograft, tumour	0.5 h post injection		tumour uptake	4.6 ± 1.5 %ID/g

A few entries again:
Compound	test	system	conditions	how to read	endpoint	result
CC[C@@]1(O)C(=O)OCc2c1cc1n(c2=O)Cc2cc3cc(OC(=O)CCCC(=O)NCC(=O)N[C@@H](Cc4ccccc4)C(=O)N[C@@H](Cc4ccccc4)C(=O)N[C@@H](Cc4ccc(OP(=O)(O)O)cc4)C(=O)NCCSSCCNC(=O)CCC(=O)N[C@@H](CCC(=O)O)C(=O)N[C@@H](CCCNC(=N)N)C(=O)NCC(=O)N[C@@H](CC(=O)O)C(=O)O)ccc3nc2-1	LC-MS	nude mice, HepG2 xenograft, tumour	3 mg/kg HCPT equivalent, 24 h	reference: free HCPT	tumour accumulation	13.6 fold
N=C(N)NCCC[C@@H]1NC(=O)[C@H](CCCCNC(=O)CCOCCOCCOCCOCCNC(=O)CC[C@H](NC(=O)CCOCCOCCOCCOCCNC(=O)c2ccc(NN)nc2)C(=O)NCCOCCOCCOCCOCCC(=O)NCCCC[C@@H]2NC(=O)[C@@H](Cc3ccccc3)NC(=O)[C@H](CC(=O)O)NC(=O)CNC(=O)[C@H](CCCNC(=N)N)NC2=O)NC(=O)[C@@H](Cc2ccccc2)NC(=O)[C@H](CC(=O)O)NC(=O)CNC1=O [technetium-99m labelled]	SPECT/CT	athymic nude mice, U-87 MG xenograft, tumour	37 MBq, 60 min		tumour uptake	~7 %ID/mL
